Measurements of several laboratories.
Lines come from different studies, so protocols differ. Numbers after ± are the reported error.

C[N+](C)(CI)CC(=O)O  platelet aggregation (human platelet-rich plasma; 20 µM, with: ADP 2 µM): no effect
CC12CC(O)C3CC1(OC1OC(CO)C(O)C(O)C1O)C3(COC(=O)c1ccccc1)C(=O)O2 (centres unmarked)  out-circle rate (mice, reserpine-induced depression; 14 mg/kg, 7 days, within 15 s): 70%
C=C(c1cc(F)c(C(=O)O)c(F)c1)c1cc2c(cc1C)C(C)(C)CCC2(C)C  log2 fold change (RNA sequencing, refers to: Alb mRNA; rat, brain; dose not given, 24 h, single dose; reference: vehicle): -2.9
COc1ccc(C2CC(c3ccc(C)cc3)=Nc3ccccc3S2)cc1 (centres unmarked)  body weight (Wistar rat, STZ-induced diabetes; oral, 20 mg/kg once daily, day 7): 193 ± 4.18 g
COc1ccc2c(c1)c(CC(=O)OCC(=O)c1ccccc1)c(C)n2C(=O)c1ccc(Cl)cc1  latency of nociceptive response (hot plate test; BALB/c mice; 50 mg/kg, 90 min): 16.4 ± 1.11 s
Cc1ccc(S(=O)(=O)N(CCc2nnc(S)o2)c2ccc(Cl)cc2)cc1  protection (analgesic activity, tail flick test; rat; 75 mg/kg): 110%
CSCC[C@@H]1NC(=O)[C@H](C)NC(=O)[C@H]([C@@H](C)O)NC(=O)CNC(=O)[C@H](CC(C)C)NC(=O)[C@H](CCC(N)=O)NC(=O)[C@H](CCCNC(=N)N)NC(=O)[C@@H]2CSSC[C@@H]3NC(=O)[C@@H]4CCCN4C(=O)[C@H](C(C)C)NC(=O)[C@H](CCC(N)=O)NC(=O)[C@H](CCC(N)=O)NC(=O)CNC(=O)[C@H](CC(C)C)NC(=O)[C@@H]4CSSC[C@H](NC(=O)[C@H]([C@@H](C)O)NC(=O)[C@H](C)NC(=O)[C@H](CSSC[C@@H](C(=O)N[C@@H](CO)C(=O)N[C@@H](CCC(N)=O)C(=O)N[C@H](C(N)=O)[C@@H](C)O)NC(=O)[C@@H]5CCCN5C(=O)[C@H](CC(N)=O)NC1=O)NC(=O)[C@@H]1CCCN1C(=O)[C@H](CC(=O)O)NC(=O)[C@H](CSSC[C@H](NC(=O)[C@H](CCCNC(=N)N)NC(=O)[C@H](CCCNC(=N)N)NC(=O)[C@H](CO)NC(=O)[C@@H](N)CO)C(=O)N[C@@H](C(C)C)C(=O)N[C@@H](CCCNC(=N)N)C(=O)N[C@@H](CC(C)C)C(=O)N[C@@H](Cc1c[nH]cn1)C(=O)N[C@@H](CCC(=O)O)C(=O)N[C@@H](CO)C(=O)N4)NC3=O)C(=O)N[C@@H](Cc1ccc(O)cc1)C(=O)N[C@H]1CSSC[C@H](NC(=O)[C@H](Cc3ccccc3)NC(=O)[C@H](C)NC(=O)[C@H](CC(N)=O)NC(=O)[C@H](Cc3ccccc3)NC(=O)[C@H](Cc3ccccc3)NC(=O)[C@H](CCCNC(=N)N)NC1=O)C(=O)N[C@@H](Cc1ccc(O)cc1)C(=O)N2  body weight change (Long-Evans rat, male; intracerebroventricular, 1.0 nmol, 5 days): 6.89 ± 7 g
Cc1cc(=O)[nH]c2ccc(OCCCC(=O)N3CCN(C)CC3)cc12  contraction rate increase (rat, isolated spontaneously beating atria; 100 µM; reference: baseline): 32 ± 4%
CN1Cc2c(Cl)cc(Cl)cc2C(c2ccc(S(=O)(=O)NCCOCCOCCNC(=O)C(O)C(O)C(=O)NCCOCCOCCNS(=O)(=O)c3ccc(C4CN(C)Cc5c(Cl)cc(Cl)cc54)cc3)cc2)C1 (centres unmarked)  urinary sodium (Sprague Dawley rat, urine; oral, 3 mg/kg, 16 h; reference: control): 11%
COc1ccc2c(c1)c(CC(=O)OCOC(C)=O)c(C)n2C(=O)c1ccc(Cl)cc1  latency of nociceptive response (hot plate test; BALB/c mice; 75 mg/kg, 120 min): 15.9 ± 1.07 s
Cc1nc(C)c(C=[N+]([O-])C(C)(C)C)nc1C  MEF2D level (immunofluorescence; MPTP-treated mice, dopaminergic neurons; dose not given; reference: sham): 93.3%
CC(C)(C)C(=O)NNC(=O)/C=C\n1cnc(-c2cc(C(F)(F)F)cc(C(F)(F)F)c2)n1  cumulative disease score (mice, MOG35-55 EAE; oral, 7.5 mg/kg, 12 days, from hindlimb paralysis; reference: vehicle, decrease): 75 ± 4.32%
NS(=O)(=O)NCCc1ccccc1F  ED50 (6 Hz seizures; mouse; intraperitoneal): 50 mg/kg
CC(C)c1cnc(-c2cc(Cl)ccc2F)cc1Nc1ccncc1C(=O)NC(CO)CO  inhibition (SMAD2 phosphorylation; mouse, 4T1 tumour, tumour; 30 mg/kg twice daily then once, 24 h period, steady state): 42%
CCCn1cnc(C[C@H](NC(=O)c2nccnc2N)C(=O)N2CCC[C@H]2C(N)=O)c1  sleeping time reduction (Swiss albino mice; iv, 10 µmol/kg, with: pentobarbital 50 mg/kg ip; reference: control): 9.2%
Nn1c(S)nnc1CCN(c1ccc(Cl)cc1)S(=O)(=O)c1ccccc1  protection (seizure; maximal electroshock model; 200 mg/kg): 66%
CCCC1OC2CC3C4CCC5=CC(=O)C=CC5(C)C4C(O)CC3(C)C2(C(=O)COC(=O)CN(C)C)O1 (centres unmarked)  inhibition of ear edema (mouse, xylene-induced ear edema; intraperitoneal, equivalent to 200 µg/kg budesonide, 1 h before xylene): 46.7%
Cc1c(C)c(C)[c-](C)c1C.O=C([N-]c1ccccc1)c1ccccn1.[Cl-].[Ir+3]  yield (4-hydroxynonenal reduction; PBS/DMSO; 24 h, 37 °C, 1 mol% catalyst, with: excess sodium formate): 86%
N=C(N)NCCC[C@@H]1NC(=O)[C@H](CCCCNC(=O)CCOCCOCCOCCOCCOCCOCCOCCOCCOCCOCCOCCOCCNC(=O)CCSC2CC(=O)N(CCC(=O)NCCCC[C@H](NC(=O)CCC(C(=O)O)N3CCN(C(CCC(=O)N[C@@H](CCCCNC(=O)CCN4C(=O)CC(SCCC(=O)NCCOCCOCCOCCOCCOCCOCCOCCOCCOCCOCCOCCOCCC(=O)NCCCC[C@@H]5NC(=O)[C@@H](Cc6ccc(O)cc6)NC(=O)[C@H](CC(=O)O)NC(=O)CNC(=O)[C@H](CCCNC(=N)N)NC5=O)C4=O)C(=O)N(CCCNC(=O)CN4CCN(CC(=O)O)CCN(CC(=O)O)CCN(CC(=O)O)CC4)CCCNC(=O)CN4CCN(CC(=O)O)CCN(CC(=O)O)CCN(CC(=O)O)CC4)C(=O)O)CCN(C(CCC(=O)N[C@@H](CCCCNC(=O)CCN4C(=O)CC(SCCC(=O)NCCOCCOCCOCCOCCOCCOCCOCCOCCOCCOCCOCCOCCC(=O)NCCCC[C@@H]5NC(=O)[C@@H](Cc6ccc(O)cc6)NC(=O)[C@H](CC(=O)O)NC(=O)CNC(=O)[C@H](CCCNC(=N)N)NC5=O)C4=O)C(=O)N(CCCNC(=O)CN4CCN(CC(=O)O)CCN(CC(=O)O)CCN(CC(=O)O)CC4)CCCNC(=O)CN4CCN(CC(=O)O)CCN(CC(=O)O)CCN(CC(=O)O)CC4)C(=O)O)CC3)C(=O)N(CCCNC(=O)CN3CCN(CC(=O)O)CCN(CC(=O)O)CCN(CC(=O)O)CC3)CCCNC(=O)CN3CCN(CC(=O)O)CCN(CC(=O)O)CCN(CC(=O)O)CC3)C2=O)NC(=O)[C@@H](Cc2ccc(O)cc2)NC(=O)[C@H](CC(=O)O)NC(=O)CNC1=O (some centres unmarked) [gallium-68 labelled]  MR contrast enhancement (MR imaging; SCID mice, U-87 MG xenograft tumour; Gd 0.027 mmol/kg, 1 h, 1.0 T, unit not given; reference: before injection): 3.06
O=C(NC1CCCCC1)C(c1ccncc1)N(C(=O)CCl)c1ccc(F)cc1 (racemic)  off-target molecular weight (competitive ABPP; MDA-MB-435 soluble proteome; 5 µM, with: CA-Rh probe): 38 kDa
Cc1sc(-c2ccc(C(F)(F)F)cc2)nc1-c1nn[nH]c1C#N  HbA1c change reduction (ZDF rat; 10 mg/kg/day, 6 weeks, with: metformin 100 mg/kg/day; reference: vehicle): 35%
CSc1cc(C)[nH]c(=O)c1CN1CCc2c(Cl)c3c(c(C)c2C1=O)OC(C)(C1CCC(N(C)C)CC1)O3 (centres unmarked)  H3K27me3 reduction (mouse KARPAS-422 xenograft, tumour; oral, 10 mg/kg once daily, day 12): 43%
N#Cc1c(Nc2ccccc2C(F)(F)F)s[nH]c1=O  cADPR level (mouse, sciatic nerve axotomy, sciatic nerve; 30 mg/kg three times daily, 24 h; reference: vehicle): 72%
CCOC(=O)c1cc2c(N)c(C(=O)OC)sc2nc1C  urinary osmolality (Sprague-Dawley rats; subcutaneous, 100 mg/kg every 8 h, long-term dosing; reference: vehicle): decreased
COc1ccc(C2CC(c3ccc(C)cc3)=Nc3ccccc3S2)cc1OC (centres unmarked)  body weight (Wistar rat, STZ-induced diabetes; oral, 20 mg/kg once daily, day 7): 191 ± 4.39 g
CC(C)n1cnc(C[C@H](NC(=O)c2nccnc2N)C(=O)N2CCC[C@H]2C(N)=O)c1  sleeping time reduction (Swiss albino mice; iv, 10 µmol/kg, with: pentobarbital 50 mg/kg ip; reference: control): 27.9%
C=C(c1ccc(C(=O)O)c(F)c1)c1cc2c(cc1C)C(C)(C)C=CC2(C)C  log2 fold change (RNA sequencing, refers to: Upp1; rat, brain; dose not given, 24 h; reference: vehicle): -0.33
CC/C=C\C/C=C\C/C=C\C/C=C\C/C=C\CCCCOC(CC)C(=O)O (centres unmarked)  hepatic cholesteryl ester (APOE*3Leiden.CETP mice, high-fat/cholesterol diet; dose not given, 20 weeks; reference: control): decreased
C=CC(=O)N1C[C@H](C)N(c2nc(OC[C@@]34CCCN3C[C@H](F)C4)nc3c(F)c(-c4ccc(F)c5sc(N)c(C#N)c45)c(C(F)(F)F)cc23)C[C@H]1C  IC50 (refers to: pERK; mouse, MIA PaCa-2 xenograft tumour): 0.061 µM
CC(=O)N[C@@H](C)C(=O)N[C@@H](CO)C(=O)NC(C)(C)C(=O)N[C@@H](CC(C)C)C(=O)N[C@@H](CCCNC(=N)N)C(=O)N[C@@H](CCCCN)C(=O)N[C@@H](CC(C)C)C(=O)NC(C)(C)C(=O)N[C@@H](CCCCN)C(=O)N[C@@H](CCCNC(=N)N)C(=O)N[C@@H](CC(C)C)C(=O)N[C@@H](CC(C)C)C(N)=O  cortical lesion volume reduction (cresyl violet staining; male Long-Evans rat, fluid percussion injury; 1.0 mg/kg, 5 doses, post-injury day 22; reference: contralateral cortex): 6.42%
COc1c2c(cc3oc(COC4OC(CO)C(O)C(O)C4O)cc(=O)c13)OC(C(C)(C)O)C2 (centres unmarked)  onset of antipyretic effect (rectal temperature; rat, 2,4-dinitrophenol-induced pyrexia; oral, dose not given): 2 h
Cc1c(C(=O)Nc2ccn(C)n2)ncn1Cc1cccc(C(F)(F)F)c1  wire hanging performance (human WT αS transgenic mouse; dose not given; reference: placebo): no effect
Cn1ccc(-c2cc(Cl)c(Cl)c3[nH]c4c(c23)CN(C(=O)CO)CC4)n1  IC50 (plasma CXCL10, inhibitor; cGAS I309T mouse, whole blood; with: 100 bp dsDNA): 16.2 µM
CC(=O)N/C(N)=N/C(=N\S(=O)(=O)c1ccc(C(F)(F)F)cc1)N1C[C@H](c2ccccc2)C(c2ccc(Cl)cc2)=N1  hepatic glucose production (hyperinsulinaemic euglycaemic clamp; diet-induced obese mice, wild-type and β-arrestin-2 knockout; oral, 1 mg/kg, single dose): decreased
CN(C)C(=O)c1ccnc(N2Cc3cn(Cc4ccc(F)cc4F)nc3C2)n1  effect size d (paired-pulse ratio; hippocampal Schaffer collaterals, mouse; concentration not given, interval 50 ms, unit not given; reference: vehicle): 1.83
Cc1cc(O)c(C=O)c2c1C(=O)Oc1c(CO)c(O)c3c(c1O2)C(O)OC3=O (centres unmarked)  body weight (streptozotocin diabetic male rats; 10 mg/kg, 0 weeks): 193 ± 5.43 g
Cl.[Cl][Ru-4]123([n+]4ccccc4-c4cc(-c5ccccc5)cc([n+]41)-c1cccc[n+]12)[n+]1ccc(-c2ccccc2)c2ccc4c(-c5ccccc5)cc[n+]3c4c21  EC50 (DNA damage, gel electrophoresis; pUC19 plasmid DNA; 16 h, 37 °C): 12.2 µM
C=C(c1ncc(C(=O)O)cn1)c1cc2c(cc1C)C(C)(C)CCC2(C)C  log2 fold change (RNA sequencing, refers to: Sfrp5; rat, brain; dose not given, 24 h; reference: vehicle): -0.2
Cc1cccc(NC(=O)CCN2CCN(C/C=C/c3ccccc3)CC2)c1  baseline locomotor activity (C57BL/6J mouse; intraperitoneal, 6.25 mg/kg, 0 to 30 min): no effect
CC(=O)C12NC(C)(C)CC1(C)C(=O)C1=C2c2c(c3c4n2C(C)(C)CC2=C4C4(CC(C)(C)NC(C)(C4)C2=O)CC3(C)C)C(=O)C(C)(C)N1 (single isomer, unassigned; (-))  inhibition (acetic acid-induced writhing; mouse; intraperitoneal, 5 mg/kg, 0.5 h, writhes counted over 30 min): 79.5 ± 1.6%
Cc1cnc(Nc2cc(C)c(C)c(C)c2)nc1Nc1ccc2oc(=O)[nH]c2c1  STAT5b phosphorylation (refers to: phospho-STAT5b; rat, OVA asthma model, whole lung homogenate; intratracheal, dose not given, 2 h after OVA challenge; reference: OVA vehicle): inhibited

A few entries again:
C=CC(=O)N1C[C@H](C)N(c2nc(OC[C@@]34CCCN3C[C@H](F)C4)nc3c(F)c(-c4ccc(F)c5sc(N)c(C#N)c45)c(C(F)(F)F)cc23)C[C@H]1C  IC50 (refers to: pERK; mouse, MIA PaCa-2 xenograft tumour): 0.061 µM
CC(C)(C)C(=O)NNC(=O)/C=C\n1cnc(-c2cc(C(F)(F)F)cc(C(F)(F)F)c2)n1  cumulative disease score (mice, MOG35-55 EAE; oral, 7.5 mg/kg, 12 days, from hindlimb paralysis; reference: vehicle, decrease): 75 ± 4.32%
C=C(c1cc(F)c(C(=O)O)c(F)c1)c1cc2c(cc1C)C(C)(C)CCC2(C)C  log2 fold change (RNA sequencing, refers to: Alb mRNA; rat, brain; dose not given, 24 h, single dose; reference: vehicle): -2.9
Cn1ccc(-c2cc(Cl)c(Cl)c3[nH]c4c(c23)CN(C(=O)CO)CC4)n1  IC50 (plasma CXCL10, inhibitor; cGAS I309T mouse, whole blood; with: 100 bp dsDNA): 16.2 µM
CC(C)n1cnc(C[C@H](NC(=O)c2nccnc2N)C(=O)N2CCC[C@H]2C(N)=O)c1  sleeping time reduction (Swiss albino mice; iv, 10 µmol/kg, with: pentobarbital 50 mg/kg ip; reference: control): 27.9%
COc1ccc2c(c1)c(CC(=O)OCC(=O)c1ccccc1)c(C)n2C(=O)c1ccc(Cl)cc1  latency of nociceptive response (hot plate test; BALB/c mice; 50 mg/kg, 90 min): 16.4 ± 1.11 s
CC(=O)N/C(N)=N/C(=N\S(=O)(=O)c1ccc(C(F)(F)F)cc1)N1C[C@H](c2ccccc2)C(c2ccc(Cl)cc2)=N1  hepatic glucose production (hyperinsulinaemic euglycaemic clamp; diet-induced obese mice, wild-type and β-arrestin-2 knockout; oral, 1 mg/kg, single dose): decreased
